Published values from different studies.
Each numbered part is a random draw from the data of one study; scales do not carry over between parts. “And” joins repeats or separate records; there may be more than shown.
Chain of UniProt P54753 (whole entry, looked up): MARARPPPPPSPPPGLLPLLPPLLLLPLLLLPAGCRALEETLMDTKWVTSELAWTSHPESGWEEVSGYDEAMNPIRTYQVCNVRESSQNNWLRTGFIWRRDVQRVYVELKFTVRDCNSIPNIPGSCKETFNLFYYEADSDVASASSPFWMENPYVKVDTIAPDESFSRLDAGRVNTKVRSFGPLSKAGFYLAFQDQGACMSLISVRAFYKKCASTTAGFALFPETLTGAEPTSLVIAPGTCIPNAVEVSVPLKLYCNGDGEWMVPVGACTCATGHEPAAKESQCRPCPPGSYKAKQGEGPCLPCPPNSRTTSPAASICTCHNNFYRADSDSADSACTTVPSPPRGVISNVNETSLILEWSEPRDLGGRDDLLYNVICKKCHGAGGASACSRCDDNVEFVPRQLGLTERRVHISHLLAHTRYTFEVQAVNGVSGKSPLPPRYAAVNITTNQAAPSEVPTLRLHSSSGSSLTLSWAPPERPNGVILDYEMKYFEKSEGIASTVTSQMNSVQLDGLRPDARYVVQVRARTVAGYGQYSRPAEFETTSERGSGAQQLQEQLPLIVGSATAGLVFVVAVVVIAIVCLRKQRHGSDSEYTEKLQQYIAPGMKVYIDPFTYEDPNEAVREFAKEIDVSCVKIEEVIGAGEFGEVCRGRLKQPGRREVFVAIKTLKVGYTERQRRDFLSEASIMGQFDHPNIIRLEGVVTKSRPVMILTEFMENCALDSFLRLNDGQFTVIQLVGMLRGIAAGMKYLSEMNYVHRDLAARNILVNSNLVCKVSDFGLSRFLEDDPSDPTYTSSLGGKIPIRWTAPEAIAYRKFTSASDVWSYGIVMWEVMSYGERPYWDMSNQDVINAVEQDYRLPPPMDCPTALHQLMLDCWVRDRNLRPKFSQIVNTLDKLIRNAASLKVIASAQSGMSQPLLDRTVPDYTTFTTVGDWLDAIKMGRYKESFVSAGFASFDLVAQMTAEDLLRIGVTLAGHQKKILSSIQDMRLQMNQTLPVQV
Chain of UniProt O75460 (whole entry, looked up): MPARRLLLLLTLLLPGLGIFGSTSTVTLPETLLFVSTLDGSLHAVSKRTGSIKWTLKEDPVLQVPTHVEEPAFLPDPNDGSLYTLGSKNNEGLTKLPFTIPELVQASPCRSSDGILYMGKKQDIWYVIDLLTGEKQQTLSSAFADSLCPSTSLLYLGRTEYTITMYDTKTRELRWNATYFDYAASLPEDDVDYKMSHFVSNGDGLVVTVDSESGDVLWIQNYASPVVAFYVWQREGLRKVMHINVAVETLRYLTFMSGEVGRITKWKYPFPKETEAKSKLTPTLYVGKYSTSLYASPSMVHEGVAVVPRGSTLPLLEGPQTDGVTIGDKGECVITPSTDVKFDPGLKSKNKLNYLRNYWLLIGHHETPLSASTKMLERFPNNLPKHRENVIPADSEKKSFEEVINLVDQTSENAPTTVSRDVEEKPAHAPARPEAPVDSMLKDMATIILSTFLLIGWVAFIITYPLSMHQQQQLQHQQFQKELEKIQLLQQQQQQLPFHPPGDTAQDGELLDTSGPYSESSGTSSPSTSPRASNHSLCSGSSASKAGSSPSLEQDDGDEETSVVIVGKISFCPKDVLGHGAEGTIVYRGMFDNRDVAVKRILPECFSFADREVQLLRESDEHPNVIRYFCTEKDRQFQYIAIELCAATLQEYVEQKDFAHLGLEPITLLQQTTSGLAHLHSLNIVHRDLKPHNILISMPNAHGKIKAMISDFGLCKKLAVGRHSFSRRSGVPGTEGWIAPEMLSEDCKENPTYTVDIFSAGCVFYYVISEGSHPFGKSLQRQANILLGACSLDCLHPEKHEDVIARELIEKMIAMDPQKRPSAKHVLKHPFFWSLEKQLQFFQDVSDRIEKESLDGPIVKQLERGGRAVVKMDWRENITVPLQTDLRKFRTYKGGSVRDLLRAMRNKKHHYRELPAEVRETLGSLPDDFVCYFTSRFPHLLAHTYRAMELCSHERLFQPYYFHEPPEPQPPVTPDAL
Chain of UniProt Q13976 (whole entry, looked up): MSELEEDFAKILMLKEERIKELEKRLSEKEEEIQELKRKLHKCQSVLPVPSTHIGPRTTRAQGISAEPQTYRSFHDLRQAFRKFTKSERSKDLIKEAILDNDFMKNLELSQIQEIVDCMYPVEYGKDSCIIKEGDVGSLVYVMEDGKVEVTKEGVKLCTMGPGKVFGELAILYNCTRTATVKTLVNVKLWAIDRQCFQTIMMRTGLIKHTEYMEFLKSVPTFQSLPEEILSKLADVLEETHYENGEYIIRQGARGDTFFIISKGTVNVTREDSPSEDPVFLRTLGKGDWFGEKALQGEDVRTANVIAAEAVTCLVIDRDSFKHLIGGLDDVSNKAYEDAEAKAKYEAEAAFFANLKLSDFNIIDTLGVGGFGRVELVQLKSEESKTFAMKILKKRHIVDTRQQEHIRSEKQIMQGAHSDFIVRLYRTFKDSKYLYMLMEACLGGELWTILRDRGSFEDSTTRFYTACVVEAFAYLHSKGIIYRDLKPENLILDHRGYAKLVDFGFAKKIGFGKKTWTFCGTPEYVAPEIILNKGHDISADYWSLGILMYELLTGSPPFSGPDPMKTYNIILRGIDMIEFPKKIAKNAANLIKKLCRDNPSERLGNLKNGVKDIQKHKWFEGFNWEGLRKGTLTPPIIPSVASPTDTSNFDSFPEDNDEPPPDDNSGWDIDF
Chain of UniProt Q08881 (whole entry, looked up): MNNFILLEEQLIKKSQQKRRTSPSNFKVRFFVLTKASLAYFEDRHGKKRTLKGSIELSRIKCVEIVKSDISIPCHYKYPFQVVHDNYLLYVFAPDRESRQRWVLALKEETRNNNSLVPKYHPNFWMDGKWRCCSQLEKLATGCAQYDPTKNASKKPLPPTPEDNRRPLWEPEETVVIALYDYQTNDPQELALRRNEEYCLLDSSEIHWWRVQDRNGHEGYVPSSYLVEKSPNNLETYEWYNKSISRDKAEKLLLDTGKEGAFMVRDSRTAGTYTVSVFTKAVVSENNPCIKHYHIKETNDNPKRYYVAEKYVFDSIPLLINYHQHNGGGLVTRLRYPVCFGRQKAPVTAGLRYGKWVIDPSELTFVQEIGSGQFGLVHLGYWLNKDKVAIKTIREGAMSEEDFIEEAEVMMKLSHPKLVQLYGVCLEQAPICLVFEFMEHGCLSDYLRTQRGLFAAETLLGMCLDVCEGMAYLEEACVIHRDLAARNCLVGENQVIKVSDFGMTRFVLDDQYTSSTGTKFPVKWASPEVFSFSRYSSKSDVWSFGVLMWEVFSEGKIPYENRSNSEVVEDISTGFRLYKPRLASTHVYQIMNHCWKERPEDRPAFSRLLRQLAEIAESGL
Chain of UniProt Q2M2I8 (whole entry, looked up): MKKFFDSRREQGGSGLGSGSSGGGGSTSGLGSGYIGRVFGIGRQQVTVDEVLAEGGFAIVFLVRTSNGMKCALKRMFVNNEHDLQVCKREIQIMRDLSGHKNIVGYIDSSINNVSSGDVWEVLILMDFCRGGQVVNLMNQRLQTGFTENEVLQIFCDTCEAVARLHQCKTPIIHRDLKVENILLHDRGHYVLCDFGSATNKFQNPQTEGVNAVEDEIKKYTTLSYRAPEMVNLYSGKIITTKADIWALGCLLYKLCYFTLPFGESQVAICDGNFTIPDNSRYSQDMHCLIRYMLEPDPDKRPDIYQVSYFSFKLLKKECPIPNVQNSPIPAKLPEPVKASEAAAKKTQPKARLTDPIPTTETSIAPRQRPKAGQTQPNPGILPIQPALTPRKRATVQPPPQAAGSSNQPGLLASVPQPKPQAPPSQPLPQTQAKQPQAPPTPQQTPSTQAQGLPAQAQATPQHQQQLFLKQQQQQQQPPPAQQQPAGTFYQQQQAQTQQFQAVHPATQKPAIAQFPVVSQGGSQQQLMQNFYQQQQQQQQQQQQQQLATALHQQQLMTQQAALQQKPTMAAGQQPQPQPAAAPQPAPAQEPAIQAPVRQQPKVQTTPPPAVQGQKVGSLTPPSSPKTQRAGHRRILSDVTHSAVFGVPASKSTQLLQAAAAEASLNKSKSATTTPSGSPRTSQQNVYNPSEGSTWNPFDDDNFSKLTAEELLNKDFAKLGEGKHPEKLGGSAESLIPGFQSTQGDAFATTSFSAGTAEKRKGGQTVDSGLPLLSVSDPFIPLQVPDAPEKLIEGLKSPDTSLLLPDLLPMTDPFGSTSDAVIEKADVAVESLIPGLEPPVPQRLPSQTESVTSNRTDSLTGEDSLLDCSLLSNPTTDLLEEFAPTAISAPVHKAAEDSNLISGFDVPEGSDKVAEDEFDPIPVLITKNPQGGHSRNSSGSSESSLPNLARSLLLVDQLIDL
Chain of UniProt P53778 (whole entry, looked up): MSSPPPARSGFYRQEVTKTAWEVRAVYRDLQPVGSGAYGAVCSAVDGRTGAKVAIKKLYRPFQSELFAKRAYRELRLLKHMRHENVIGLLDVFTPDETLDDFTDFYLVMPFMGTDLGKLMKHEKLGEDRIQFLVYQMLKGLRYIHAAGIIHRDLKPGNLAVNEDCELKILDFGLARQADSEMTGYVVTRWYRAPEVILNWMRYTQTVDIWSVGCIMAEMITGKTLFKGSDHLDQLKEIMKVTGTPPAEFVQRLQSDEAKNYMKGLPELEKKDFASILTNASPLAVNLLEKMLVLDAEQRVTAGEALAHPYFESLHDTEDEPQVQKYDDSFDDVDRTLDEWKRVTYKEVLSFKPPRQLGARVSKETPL

Set 1
Structure (SMILES): CC(=O)N[C@@H](Cc1c[nH]c2ccccc12)C(=O)N[C@@H](CCC(=O)C=[N+]=[N-])C(=O)OC(C)C
| host | route | dose | time | tumour volume |
| --- | --- | --- | --- | --- |
| mouse, EL4 tumour | subcutaneous | 0.3 mg/kg | day 14 | 177 mm3 and 31.1 mm3 and 97.7 mm3 and 874 mm3 and 296 mm3 and 531 mm3 |
| mice, MC-38 tumour rechallenge | – | 1 mg/kg | day 21 after injection | 0 mm3 |
| mouse, EL4 tumour | subcutaneous | 0.1 mg/kg | day 9 | 495 mm3 and 1140 mm3 and 678 mm3 and 371 mm3 and 568 mm3 and 624 mm3 |
| CES1-/- mice, OVA-expressing MC-38 tumour | – | dose not given | day 10 after injection | 47 mm3 and 172 mm3 and 218 mm3 and 7 mm3 and 54 mm3 and 81 mm3 and 118 mm3 |
| mouse, EL4 tumour | subcutaneous | 0.1 mg/kg | day 8 | 499 mm3 and 680 mm3 and 546 mm3 and 682 mm3 and 489 mm3 and 1260 mm3 |
| mouse, EL4 tumour | subcutaneous | 0.3 mg/kg | day 9 | 333 mm3 and 705 mm3 and 826 mm3 and 206 mm3 and 624 mm3 and 448 mm3 |

Set 2
Compound: C=CC(=O)N1CCC([C@@H]2CCNc3c(C(N)=O)c(-c4ccc(Oc5ccccc5)cc4)nn32)CC1
Tested at: 1 µM
| target | read-out | mode | inhibition |
| --- | --- | --- | --- |
| STK16 (Homo sapiens, UniProt O75716) | enzyme activity | inhibitor | 9% |
| PRKG1 (Homo sapiens, UniProt Q13976) | enzyme activity | inhibitor | 18% |
| EPHB3 (Homo sapiens, UniProt P54753) | cell-free assay | – | 9% |
| ERN1 (Homo sapiens, UniProt O75460) | enzyme activity | inhibitor | 25% |
| MAPK12 (Homo sapiens, UniProt P53778) | enzyme activity | inhibitor | 37% |
| CDKL3 (Homo sapiens, UniProt Q8IVW4) | enzyme activity | – | 2% |
| MAP3K10 (Homo sapiens, UniProt Q02779) | enzyme activity | inhibitor | 24% |

Set 3
Cell line: UACC-903 melanoma
| SMILES | IC50 [µM] |
| --- | --- |
| CC(NCCC(c1ccccc1)c1ccccc1)c1ccccc1 (centres unmarked) | 8.7 |
| Fc1ccc([C@@H]2CCNC[C@H]2COc2ccc3c(c2)OCO3)cc1 | 6.2 |
| CNCCC=C1c2ccccc2CCc2ccccc21 | 14.9 |
| CN(C)CCCN1c2ccccc2Sc2ccc(C(F)(F)F)cc21 | 12.4 |
| O=C1NCCN1CCN1CCC(c2cn(-c3ccc(F)cc3)c3ccc(Cl)cc23)CC1 | 6.6 |

Set 4
SMILES: CC(=O)N1CCN(c2nc(OC[C@@H]3CCCN3C)nc3c2CCN(c2cccc4cccc(Cl)c24)C3)C[C@@H]1CC#N
Read-out: binding
Mode: competitor
Technique: NanoBRET
Cells: HEK293
KRAS G12D: GTPase KRas (KRAS, Homo sapiens, UniProt P01116, G12D)
| target | tested at | normalized BRET |
| --- | --- | --- |
| GTPase KRas (KRAS, Homo sapiens, UniProt P01116, Q61R) | 1.24 µM | 100% and 94% and 86.9% |
| KRAS G12D | 1.69 nM | 95.1% and 103% and 95% |
| GTPase KRas (KRAS, Homo sapiens, UniProt P01116, Q61L) | 412 nM | 69.9% and 67% and 74.4% |
| KRAS G12D | 3.7 µM | 87% and 94% and 91.8% |

Set 5
Target: Alpha-2A adrenergic receptor (ADRA2A, Homo sapiens, UniProt P08913)
Chain of UniProt P08913 (whole entry, looked up): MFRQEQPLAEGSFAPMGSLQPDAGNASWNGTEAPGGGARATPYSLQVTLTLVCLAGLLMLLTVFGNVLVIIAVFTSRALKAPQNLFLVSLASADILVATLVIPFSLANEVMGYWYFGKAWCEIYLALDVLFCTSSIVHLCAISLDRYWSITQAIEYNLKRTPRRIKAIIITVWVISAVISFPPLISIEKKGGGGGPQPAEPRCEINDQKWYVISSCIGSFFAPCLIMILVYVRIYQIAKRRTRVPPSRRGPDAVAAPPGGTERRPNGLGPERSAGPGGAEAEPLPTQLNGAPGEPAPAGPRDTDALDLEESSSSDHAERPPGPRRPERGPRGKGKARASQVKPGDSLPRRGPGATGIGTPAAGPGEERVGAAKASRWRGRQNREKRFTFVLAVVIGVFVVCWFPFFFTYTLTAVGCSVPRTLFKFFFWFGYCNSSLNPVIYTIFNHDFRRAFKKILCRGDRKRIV
Read-out: binding
Technique: radioligand binding
Tested at: 10 µM
| Structure (SMILES) | inhibition |
| --- | --- |
| CC1=C(C#N)[C@@H](c2ccc3[nH]nc(C)c3c2)C(C#N)=C(c2ccc(Cl)cc2)N1 | 7.83% |
| CC(=O)Nc1c(F)cc(C(=O)N[C@H]2CC[C@H](O)CC2)cc1O[C@@H](C)c1ccccc1 | -11.7% |
| COc1nc2ccc([C@@](O)(c3ccccc3)C3CCN(C(C)=O)CC3)cc2c(Cl)c1Cc1ccc(-n2cccn2)cc1 | 20.8% |
| CC(=O)Nc1nc(CN2CCC[C@H](Cc3cc(C)nc(C)c3)C2)cs1 | 31.7% |
| Cc1cc(C)c(-n2ccn3nc(-c4cccnc4)cc23)cc1NC(=O)c1cc(C#N)cc(S(F)(F)(F)(F)F)c1 | 11.1% |
| Cc1nc(N2CC[C@@H](O)C2)ncc1-c1cc(C(F)(F)F)cc2[nH]ncc12 | 10.6% |
| O=C(Nc1ccc(-n2nc(-c3cccnc3)cc2C(F)(F)F)cn1)c1ccc(-c2ccccc2)c(F)c1 | 8.3% |
| CN([C@@H]1CCc2c(CC(=O)O)c3cc(S(C)(=O)=O)ccc3n2C1)S(=O)(=O)c1ccc(F)cc1 | -10.6% |
| CS(=O)(=O)NCC[C@H](NC(=O)c1cncc2c1cnn2-c1ccc(F)cc1)c1ccnc(S(C)(=O)=O)c1 | 3.49% |
| CC1=C(C#N)C(c2ccc3c(c2)c(NC(=O)c2ccccc2C)nn3C)C(C#N)=C(C)N1 | 14.4% |
| CC(=O)c1c(NS(C)(=O)=O)c2cc(-c3ccc(Cl)cc3)c(-c3ccc(Cl)cc3Cl)nc2n(C)c1=O | 19.8% |
| COCc1nc2cnc3cc(-c4c(C)noc4C)c(OC[C@H]4CCNC4)cc3c2n1[C@H](C)c1ccccc1 | 9.95% |
| Cc1cc(-n2nc(Cc3cc(F)cc(C(F)(F)F)c3)nc2C)ccc1C(N)=O | 8.93% |
| Cc1c(NC(=O)c2cc(C(N)=O)nc3cc(F)ccc23)c(C(F)(F)F)nn1Cc1ccc(C(C)(C)C)cc1 | 23.1% |
| O=C(Nc1cccnn1)N1CC(CC=Cc2cncc(Oc3ccc(C(F)(F)F)cn3)n2)C1 | 0.68% |
| O[C@]1(C(F)(F)F)CCCC[C@H]1Nc1ccc(F)cc1 | -17.7% |
| COCCc1ccc(-c2c(C)nc3c(N4CCOCC4)ccnn23)cn1 | -15.2% |
| CCCOc1ccc([C@H]2[C@H](C(=O)O)[C@@H](c3ccc4c(c3)OCO4)CN2CC(=O)Nc2c(CC)cccc2CC)cc1 | 9.55% |
| C[C@@H]1CN(c2cc(-c3nn(C)c4ccc(OC5(C)CC5)cc34)ncn2)C[C@H](C)O1 | 12.9% |
| O=C(Nc1cccnn1)N1CCC(=Cc2cccc(Oc3ccc(C(F)(F)F)cn3)c2)CC1 | 34.5% |
| CN(C)C(=O)Cn1cc(-c2nc([C@@](C)(c3ccc(-c4cnc(N)nc4)cc3)C3CC3)no2)cn1 | -3.33% |
| O=C([C@H]1C[C@H](O)CN1c1ccc(Cl)cc1)N1CC2COCC(C1)N2Cc1ccc(Cl)cc1 | 11.3% |
| O=C(O)c1cc(-c2ccc(C3CCNCC3)cc2)c2ccc(-c3ccc(C(F)(F)F)cc3)cc2c1 | 38.2% |
| O=C1CCc2cc(Nc3cc(OC4CCOCC4)c([N+](=O)[O-])cc3Cl)ccc2N1 | 4.66% |
| Cc1c(N2CCCC2)nc2ccc(Br)cc2c1C(=O)NC[C@H](CCC(=O)O)c1ccccc1Cl | -4.59% |

Set 6
Compound: C[C@H]1CC[C@H](n2c3cnccc3c3cnc(Nc4ccc5c(n4)CCN(C(=O)CO)C5)nc32)CC1
Tested at: 1 µM
| target | read-out | technique | remaining binding [%] |
| --- | --- | --- | --- |
| DDR2 (Homo sapiens, UniProt Q16832) | cell-free assay | competition with immobilised ligand | 100 |
| ACVR2B (Homo sapiens, UniProt Q13705) | binding | competition with immobilised ligand | 100 |
| ITK (Homo sapiens, UniProt Q08881) | binding | – | 79 |
| WEE2 (Homo sapiens, UniProt P0C1S8) | binding | competition with immobilised ligand | 100 |
| KDR (Homo sapiens, UniProt P35968) | cell-free assay | competition with immobilised ligand | 87 |
| AAK1 (Homo sapiens, UniProt Q2M2I8) | binding | competition with immobilised ligand | 31 |

A few entries again (set 5):
| Structure (SMILES) | inhibition |
| --- | --- |
| CC(=O)c1c(NS(C)(=O)=O)c2cc(-c3ccc(Cl)cc3)c(-c3ccc(Cl)cc3Cl)nc2n(C)c1=O | 19.8% |
| COCc1nc2cnc3cc(-c4c(C)noc4C)c(OC[C@H]4CCNC4)cc3c2n1[C@H](C)c1ccccc1 | 9.95% |
| Cc1cc(-n2nc(Cc3cc(F)cc(C(F)(F)F)c3)nc2C)ccc1C(N)=O | 8.93% |
| Cc1c(NC(=O)c2cc(C(N)=O)nc3cc(F)ccc23)c(C(F)(F)F)nn1Cc1ccc(C(C)(C)C)cc1 | 23.1% |
